{"data": "Assay results gathered from unrelated publications", "note": "Numbers after ± are the reported error."}
{"SMILES": "Cc1ccc(CNC(=O)C(CCc2ccccc2)NC(=O)C(NC(=O)c2ccc(OCc3ccc(C(C)(C)C)cc3)cc2)C(C)O)cc1 (centres unmarked)", "cell line": "Karpas-1106P", "test": "proteasome β5 activity, inhibitor, Proteasome-Glo β5", "setting": "1 h", "IC50": "0.31 ± 0.15 µM"}
{"SMILES": "CN1CCN(c2ccc(Nc3ncc(Cl)c(Nc4ccccc4P(C)(C)=O)n3)cc2Br)CC1", "cell line": "PC9-OR EGFR 19del/T790M/C797S", "test": "cell growth, inhibitor, SRB", "setting": "72 h", "IC50": "0.18 µM"}
{"SMILES": "CCN1CCC2(CC1)C/C(=N\\NC(=O)Nc1ccccc1)c1ccccc1O2", "cell line": "MCF7, HCT-116, PC-3, A549", "test": "cell growth, MTT", "setting": "range over cell lines", "IC50": "1.15 to 9.09 µM"}
{"SMILES": "C(=C/c1ccccc1)/c1ccccc1", "cell line": "THP-1", "test": "cell growth or viability, ATP luminescence", "setting": "24 h", "IC50": "45 µM"}
{"SMILES": "Cc1cnn2ccc(-c3ccc4c(c3)CN([C@H]3CCC(=O)NC3=O)C4=O)nc12", "cell line": "MOLM-13", "test": "cell growth, CellTiter luminescence", "setting": "72 h", "IC50": "0.032 µM"}
{"SMILES": "COc1ccc(/N=N/C(=S)N2CCCCC2)cc1", "cell line": "HT-1080", "test": "cell growth or viability, resazurin", "setting": "48 h", "IC50": "> 50 µM"}
{"SMILES": "CCCCCCCCC=CCCCCCCCC(=O)OCC1OC(n2ccc(N)nc2=O)C(F)(F)C1O (centres unmarked)", "cell line": "C26-A (mouse)", "test": "cell growth, SRB", "setting": "72 h", "IC50": "0.0015 ± 0.0006 µM"}
{"SMILES": "OC[C@H]1[C@@H](O)[C@@H](O)CN1Cc1ccc(Br)cc1", "cell line": "K562-Tax", "test": "cell growth or viability, MTS", "setting": "72 h", "IC50": "125 µM"}
{"SMILES": "CC1=C2[O][Ru-]([Cl])[O+]=C2C=CN1CCCN1C=CC2=[O+][Ru-]([Cl])[O]C2=C1C.Cc1ccc(C(C)C)cc1.Cc1ccc(C(C)C)cc1", "cell line": "A-427", "test": "cell growth or viability, crystal violet", "setting": "96 h", "IC50": "5.2 µM"}
{"SMILES": "CC(=O)O[C@@H]1C[C@H]2C(C)(C)[C@H](O)CC[C@]2(C)[C@H]2CC[C@@]3(C)C(=CC[C@H]3[C@@H](C)C[C@@H](O)[C@H](O)C(C)(C)O)[C@@]21C", "cell line": "SCM-1", "test": "cytotoxicity, MTT", "IC50": "15.6 ± 3.6 µM"}
{"SMILES": "CSCC[C@H](NC(=O)[C@H](Cc1ccc(OP(=O)(O)O)cc1)NC(=O)CNC(=O)CNC(=O)[C@H](CC(=O)O)NC(=O)[C@H](CO)NC(=O)[C@H](CCC(=O)O)NC(=O)CN)C(=O)N[C@@H](CC(=O)O)C(=O)N[C@@H](CCSC)C(=O)N[C@@H](CO)C(=O)N[C@@H](CCCCN)C(=O)N[C@@H](CC(=O)O)C(=O)N[C@@H](CCC(=O)O)C(=O)N[C@@H](CO)C(=O)N[C@@H](CCCCNC(=O)CNC(=O)[C@H](CCCCN)NC(=O)[C@H](CCCNC(=N)N)NC(=O)[C@H](Cc1ccccc1)NC(=O)[C@H](CCCNC(=N)N)NC(=O)[C@H](CCCNC(=N)N)NC(=O)[C@H](CCCNC(=N)N)NC(=O)[C@H](CO)NC(=O)[C@H](Cc1ccc(O)cc1)NC(=O)[C@H](CO)NC(=O)[C@H](CC(C)C)NC(=O)[C@H](CCCNC(=N)N)NC(=O)[C@@H](N)CCCNC(=N)N)C(N)=O", "cell line": "HPASMC", "test": "PDGF-induced Akt phosphorylation, inhibitor, Western blot, item: phospho-Akt", "setting": "30 min preincubation, serum-free medium, added: PDGF 1 ng/mL, 10 min", "IC50": "~51.6 µM"}
{"SMILES": "Cc1cc(C=O)cc(C)c1Oc1cc(Nc2ccc(C#N)cc2)nc2cnccc12", "cell line": "S102", "setting": "48 h", "IC50": "> 127 µM"}
{"SMILES": "C=CC(=O)Nc1cc(Nc2nccc(-c3c(-c4ccc5c(c4)OCO5)n(C)c4ccccc34)n2)c(OC)cc1N(C)CCN(C)C", "cell line": "NCI-H1975", "test": "cell growth or viability, MTT", "setting": "72 h", "IC50": "0.374 µM"}
{"SMILES": "CC[C@H](C)[C@H](N)C(=O)Nc1ccc2nc(Cc3c[nH]c4ccccc34)[nH]c2c1", "cell line": "SNU-1 (KRAS G12D)", "test": "cell viability, CellTiter-Glo", "setting": "72 h", "IC50": "9.5 ± 1.9 µM"}
{"SMILES": "C=CC(=O)Nc1ccc(F)c(-c2ncnc3[nH]cc(C(=O)OCC)c23)c1", "cell line": "mouse CD4 T-cell blasts", "test": "cell proliferation, 3H-thymidine uptake", "setting": "24 to 48 h, added: IL-2", "IC50": "0.0037 µM"}
{"SMILES": "Cc1ncsc1-c1ccc(C(CO)NC(=O)C2CC(O)CN2C(=O)C(C(C)C)n2cc(-c3ccc(COc4c(-c5c(C)c(F)cc6[nH]ncc56)c(C5CC5)cc5c(N6CC7CC6CN7)nc(OC6CCOCC6)nc45)cc3)nn2)cc1 (centres unmarked)", "cell line": "BXPC-3 (KRAS wild type)", "test": "cell growth, CellTiter-Glo", "setting": "144 h, 3D culture", "IC50": "> 10 µM"}
{"SMILES": "Clc1ccc(C=[N+]2N=C(Nc3ccccc3)[S][Pt-]2([Cl])[Cl])s1", "cell line": "HEL human lung fibroblasts", "test": "cell proliferation", "IC50": "26.2 µM"}
{"SMILES": "Cc1nn(-c2ccc(S(=O)(=O)N[C@@H](CO)CC(C)C)cc2)c2nn3nnnc3nc12", "cell line": "human Lymphocyte", "test": "cell growth or viability, MTT", "setting": "72 h", "IC50": "0.87 µM"}
{"SMILES": "CC(C)(CCCC/C=C/CCCCCC(C)(C)C(=O)O)C(=O)O", "cell line": "mouse primary hepatocytes", "test": "fatty acid synthesis, inhibitor", "setting": "4 h, added: [14C]citrate incorporation", "IC50": "13.3 ± 1.89 µM"}
{"SMILES": "COc1c(O)c(Br)c2oc3c(Br)c(O)c(CC=C(C)C)c(O)c3c(=O)c2c1CC=C(C)C", "cell line": "BEAS-2B", "test": "cell growth or viability", "IC50": "21.8 µM"}
{"SMILES": "COC(=O)CNc1cc(C[S+]([O-])c2ccc3cc(Br)ccc3c2)ccc1OC (centres unmarked)", "cell line": "SCC-15", "test": "cell growth or viability, MTS", "setting": "48 h", "IC50": "3.25 µM"}
{"SMILES": "Cc1c(-c2cccc(C3=NCCN3)c2)oc(-c2cccc(C3=NCCN3)c2)c1C", "cell line": "SV40-transformed WI-38 ALT fibroblasts", "test": "cell growth, SRB", "setting": "96 h", "IC50": "1 µM"}
{"SMILES": "CC(=O)O[C@H]1C[C@@H]2[C@@]3(C)C=CC(=O)C(C)(C)[C@H]3C[C@@H](O)[C@@]2(C)C2=CC[C@@H](c3ccoc3)[C@@]21C", "cell line": "HEp-2", "test": "cell growth or viability, MTT", "setting": "48 h", "IC50": "40.3 µM"}
{"SMILES": "O=[N+]([O-])c1ccc(NC2=N[N+](=Cc3cccs3)[Pd-]([Cl])([Cl])[S]2)cc1", "cell line": "HEL human lung fibroblasts", "test": "cell proliferation", "IC50": "51.7 µM"}
{"SMILES": "C=CC(=O)Nc1cc(Nc2nccc(-c3c(-c4cccc(-c5ccccc5)c4)n(C)c4ccccc34)n2)c(OC)cc1N(C)CCN(C)C", "cell line": "NCI-H1975", "test": "cell growth or viability, MTT", "setting": "72 h", "IC50": "0.139 µM"}
{"SMILES": "O=C(/C=C/c1cccc(S(=O)(=O)NCc2ccccc2)c1)NO", "cell line": "MOPC-315", "test": "cell growth", "setting": "24 h", "IC50": "0.291 ± 0.044 µM"}
{"SMILES": "O=C1CC[C@H](N2Cc3cc(-c4cnn5ccc(NCCN6CCOCC6)nc45)ccc3C2=O)C(=O)N1", "cell line": "MOLM-13", "test": "cell growth, CellTiter luminescence", "setting": "72 h", "IC50": "> 0.1 µM"}
{"SMILES": "COc1cc(-c2cc(=O)c3c(O)cc(OC4OC(COC5OC(C)C(O)C(O)C5O)C(O)C(O)C4O)cc3o2)ccc1O (centres unmarked)", "cell line": "MDA-MB-231/BCRP BCRP-transfected, multidrug-resistant", "test": "cytotoxicity, resazurin reduction", "setting": "72 h", "IC50": "> 100 µM"}
{"SMILES": "CN1CCC2(CC1)C/C(=N\\NC(=O)Nc1ccc(Cl)cc1)c1ccccc1O2", "cell line": "MCF7, HCT-116, PC-3, A549", "test": "cell growth, MTT", "setting": "range over cell lines", "IC50": "2.58 to 8.03 µM"}
{"SMILES": "N=C(N/N=C/c1ccc[nH]1)N/N=C/c1ccc[nH]1", "cell line": "hTERT-HPNE", "test": "cell growth, crystal violet", "setting": "72 h", "IC50": "74.3 ± 7.4 µM"}
{"SMILES": "N#C/C(=C\\c1cn(-c2ccccc2)nc1-c1ccc([N+](=O)[O-])cc1)c1nc2ccccc2[nH]1", "cell line": "ASPC1", "test": "cell growth or viability, ATP luminescence", "setting": "72 h", "IC50": "> 100 µM"}
{"SMILES": "CCCCCOc1ccc(-c2cn(-c3ccc(-c4cc(-c5ccccn5)nc(-c5ccccn5)c4)cc3)nn2)cc1", "cell line": "NHDF normal human fibroblasts", "test": "cytotoxicity, MTS", "setting": "72 h", "IC50": "> 25 µM"}
{"SMILES": "N=C(N/N=C/c1cncnc1)N/N=C/c1cncnc1", "cell line": "hTERT-HPNE", "test": "cell growth, crystal violet", "setting": "72 h", "IC50": "398 ± 55.7 µM"}
{"SMILES": "[Ru+2].c1ccc(-c2cccc(-c3ccccn3)n2)nc1.c1ccc(-c2ccccn2)nc1.c1cnccn1", "cell line": "HL-60", "test": "cell growth or viability", "setting": "dark", "IC50": "> 100 µM"}
{"SMILES": "COC(=O)[C@H]1[C@H]2C[C@H]3O[C@@]4(CCN3C[C@H]2C[C@@H](OC(=O)c2cc(OC)c(OC)c(OC)c2)[C@@H]1OC)C(=O)Nc1cc(OC)c(-c2ccccc2)cc14", "cell line": "NALM-6", "test": "cell growth or viability, trypan blue", "setting": "72 h", "IC50": "4.03 µM"}
{"SMILES": "COc1cc(-c2coc3cc(O)cc(O)c3c2=O)ccc1O", "cell line": "KKU100", "test": "cell growth or viability, MTT", "setting": "24 h", "IC50": "> 100 µM"}
{"SMILES": "CCOC(=O)c1[nH]c(C)c(/C=C/c2c(I)c(C)c3n2[B-](F)(F)[N+]2=C(C)C(I)=C(C)C2=C3c2cc(OC)cc(OC)c2)c1C", "cell line": "HEp-2", "test": "cell growth or viability, resazurin", "setting": "24 h, dark", "IC50": "> 400 µM"}
{"SMILES": "CN1CCC(N[C@@H]2CCc3[nH]c4c(C(N)=O)ccc(-c5ccccc5Cl)c4c3C2)CC1", "cell line": "colorectal cancer organoid sample E", "test": "cell growth, CellTiter-Glo", "setting": "6 days", "IC50": "0.0083 µM"}
{"SMILES": "N#Cc1cnn2ccc(-c3ccc4c(c3)CN([C@H]3CCC(=O)NC3=O)C4=O)nc12", "cell line": "MOLM-13", "test": "cell growth, CellTiter luminescence", "setting": "72 h", "IC50": "> 0.1 µM"}
{"SMILES": "C#CCOc1ccc(C(=O)c2ccc(NC(=O)C(=O)NCCc3ccc(OC)cc3)cc2)cc1", "cell line": "NCI-H2073", "test": "cell viability", "IC50": "~0.69 µM"}
{"SMILES": "CC(C)c1cccc(C(C)C)c1N1CCN(c2c(C(C)C)cccc2C(C)C)C1=[Se].[Cl][Au]", "cell line": "H157 lung carcinoma cells", "test": "cell viability, MTT", "setting": "72 h", "IC50": "0.8 ± 0.2 µM"}
{"SMILES": "CC1(C)CCC(CN2CCN(c3ccc(C(=O)NS(=O)(=O)c4ccc(NCC5COCCO5)c([N+](=O)[O-])c4)c(N4CCCOc5nc6[nH]ccc6cc54)c3)CC2)=C(c2ccc(Cl)cc2)C1 (centres unmarked)", "cell line": "OSU-CLL", "test": "cell viability, CellTiter-Glo", "setting": "72 h", "IC50": "0.00026 µM"}
{"SMILES": "COC(=O)[C@H]1[C@H]2C[C@H]3O[C@@]4(CCN3C[C@H]2C[C@@H](OC(=O)c2cc(OC)c(OC)c(OC)c2)[C@@H]1OC)C(=O)Nc1cc(OC)c(-c2ccc(F)cc2)cc14", "cell line": "NALM-6", "test": "cell growth or viability, trypan blue", "setting": "72 h", "IC50": "2.37 µM"}
{"SMILES": "C#CCN(C(=O)OCc1ccc(B2OC(C)(C)C(C)(C)O2)cc1)[c-]1cccc1.[Fe+2].c1cc[cH-]c1", "cell line": "BL2", "test": "cell growth or viability, MTT", "setting": "48 h", "IC50": "20.1 µM"}
